Earlier results that unrelated publications cite.
Compare with care: the assays were run in different laboratories. Several values in a cell are separate wells, animals, samples, runs or records. ± marks the error that the study gave.
UniProt P31645, sequence (whole entry, looked up): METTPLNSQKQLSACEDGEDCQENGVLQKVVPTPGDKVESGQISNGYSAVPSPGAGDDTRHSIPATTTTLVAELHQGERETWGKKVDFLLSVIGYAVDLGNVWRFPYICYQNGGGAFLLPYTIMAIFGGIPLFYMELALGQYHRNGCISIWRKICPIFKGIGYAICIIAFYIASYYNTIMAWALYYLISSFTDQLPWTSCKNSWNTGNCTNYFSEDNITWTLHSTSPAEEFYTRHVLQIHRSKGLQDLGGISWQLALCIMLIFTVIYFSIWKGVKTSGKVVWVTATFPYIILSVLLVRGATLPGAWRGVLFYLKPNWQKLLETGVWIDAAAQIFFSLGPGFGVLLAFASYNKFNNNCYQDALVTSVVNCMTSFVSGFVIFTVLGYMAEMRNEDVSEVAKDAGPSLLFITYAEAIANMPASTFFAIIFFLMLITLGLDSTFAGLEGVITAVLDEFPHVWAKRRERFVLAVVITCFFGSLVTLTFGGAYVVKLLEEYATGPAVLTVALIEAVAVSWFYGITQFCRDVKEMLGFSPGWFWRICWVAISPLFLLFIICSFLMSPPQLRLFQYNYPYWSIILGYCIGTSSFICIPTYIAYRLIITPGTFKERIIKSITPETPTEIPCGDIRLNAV

Structure (SMILES) | target or system | test | system | conditions | how to read | measurement | value
Oc1c(Cc2c[nH]c3ccccc23)cc(Cl)c2cccnc12 | COLO 205 | cytotoxicity | – | – | – | IC50 | 12.3 µM and 13.6 µM and 13.4 µM
O=S(=O)(c1ccc(-c2ccc3ncnc(Nc4ccc(OCc5ccc(F)cc5)c(Cl)c4)c3c2)cc1)N1CCOCC1 | Trypanosoma brucei | parasite growth | – | – | – | EC50 | 1.3 µM
Cc1[nH]c2ccccc2c1CC(=O)N[C@@H](Cc1ccccc1)C(=O)N(C)c1ccccc1 | HIV-1 | viral replication | TZM-GFP, wild type | – | – | EC50 | 0.6 ± 0.2 µM
CC(=O)Sc1ccccc1C(=O)NCCC(N)=O | HIV-1 | viral replication | CEM-SS, RF | – | – | EC50 | 1.13 ± 0.19 µM
CCCNc1ccc(C(=O)C=C(O)C(F)(F)C(F)(F)F)cn1 | Plasmodium falciparum | parasite growth | 3D7 | – | – | EC50 | 0.015 µM
Cc1c(CC(=O)N[C@@H](Cc2ccccc2)C(=O)N(C)c2ccc(Cl)cc2)c2ccccc2n1C(C)C | HIV-1 | viral replication | TZM-GFP, wild type | – | – | EC50 | 0.15 ± 0.01 µM
O=c1ccc(OCCCN2CCCCC2)nn1-c1ccc(Cl)c(Cl)c1 | SLC6A4 (Homo sapiens, UniProt P31645) | – | – | 1.0 µM | – | inhibition | 45.34 ± 0.4%
CCn1c(C)c(CC(=O)N[C@@H](Cc2ccccc2)C(=O)N(C)c2ccc(Cl)cc2)c2ccccc21 | HIV-1 | viral replication | TZM-GFP, wild type | – | – | EC50 | 0.2 ± 0.09 µM
COc1ccc(Nc2nc(Nc3ccc(OCC[18F])cc3)ncc2Br)cc1 | – | – | S180 tumour-bearing mice | intravenous, 30 min | relative to: tumour over bone | tumour to tissue ratio | 0.98
CC(=O)Nc1ccc(C(=O)C=C(O)C(F)(F)C(F)(F)F)cn1 | Plasmodium falciparum | parasite growth | 3D7 | – | – | EC50 | 0.05 ± 0.001 µM
Cc1ccc(Nc2ncnc3ccc(-c4ccc(S(=O)(=O)N5CCOCC5)cc4)cc23)cc1 | Trypanosoma brucei | parasite growth | – | – | – | EC50 | 1.2 µM
CN(C(=O)[C@H](Cc1ccccc1)NC(=O)Cc1c[nH]c2ccc(O)cc12)c1ccc(Cl)cc1 | HIV-1 | viral replication | TZM-GFP, wild type | – | – | EC50 | 0.022 µM
Cc1cc(-c2ccc(C#N)cc2)cc(C)c1Oc1ccnc(Nc2ccc(C#N)cc2)n1 | HIV-1 | viral replication | IIIB wild type | – | – | EC50 | 0.001 µM
Fc1cccc(COc2ccc(Nc3ncnc4ccc(-c5ccc(N6CCNCC6)cc5)cc34)cc2Cl)c1 | Trypanosoma brucei | parasite growth | – | – | – | EC50 | 0.37 µM
COc1ccc(C(=O)C=C(O)C(F)(F)C(F)(F)F)c(O)c1 | Plasmodium falciparum | parasite growth | 3D7 | – | – | EC50 | 0.14 ± 0.01 µM
CCn1c(C)c(CC(=O)N[C@@H](Cc2ccccc2)C(=O)N(C)c2cccc(F)c2)c2ccccc21 | HIV-1 | viral replication | TZM-GFP, wild type | – | – | EC50 | 0.33 ± 0.13 µM
Cn1cnc([N+](=O)[O-])c1Sc1ccccc1C(=O)NCCC(N)=O | HIV-1 | viral replication | human PBMC, 92HT599 | – | – | EC50 | 3.23 ± 2.81 µM
O=C(C=C(O)C(F)(F)C(F)(F)F)c1cccs1 | Plasmodium falciparum | parasite growth | 3D7 | – | – | EC50 | 1.92 ± 0.17 µM
O=S(=O)(c1ccc(-c2ccc3ncnc(Nc4ccc(OCc5cccc(F)c5)c(Cl)c4)c3c2)cc1)N1CCCCC1 | Trypanosoma brucei | parasite growth | – | – | – | EC50 | 0.32 µM
NCCN1CCN(CC(=O)O)Cc2cccc(n2)CN(CC(=O)O)CC1 | protonation constant | – | – | 0.15 M NaCl | – | log KH1 | 11.3
CC(C)(C)NS(=O)(=O)c1ccccc1-c1ccc2ncnc(Nc3ccc(OCc4cccc(F)c4)c(Cl)c3)c2c1 | Trypanosoma brucei | parasite growth | – | – | – | EC50 | 4.7 µM
CCCC(=O)OCSc1ccccc1C(=O)NCCC(N)=O | HIV-1 | viral replication | CEM-SS, RF | – | – | EC50 | 1.03 ± 0.54 µM
O=C(C=C(O)C(F)(F)C(F)(F)F)c1cccnc1 | Plasmodium falciparum | parasite growth | 3D7 | – | – | EC50 | 0.24 ± 0.01 µM
c1ccc2c(c1)CCCNC2c1c[nH]c2ncccc12 (centres unmarked) | Escherichia coli | efflux pump inhibition | AG100 AcrAB-TolC expressing | 50 µM | relative to: untreated cells | relative fluorescence index | 0.12
O=C(C=C(O)C(F)(F)C(F)(F)F)c1ccsc1 | Plasmodium falciparum | parasite growth | 3D7 | – | – | EC50 | 1.87 ± 0.15 µM
Fc1cccc(COc2ccc(Nc3ncnc4ccc(-c5cccc(CN6CCOCC6)c5)cc34)cc2Cl)c1 | Trypanosoma brucei | parasite growth | – | – | – | EC50 | 0.36 µM
O=C(C=C(O)C(F)(F)C(F)(F)Cl)c1cccnc1 | Plasmodium falciparum | parasite growth | 3D7 | – | – | EC50 | 0.35 ± 0.03 µM
Fc1cccc(COc2ccc(Nc3ncnc4ccc(-c5cccc(N6CCNCC6)c5)cc34)cc2Cl)c1 | Trypanosoma brucei | parasite growth | – | – | – | EC50 | 0.25 µM
CCn1c(C)c(CC(=O)N[C@@H](Cc2ccccc2)C(=O)N(C)c2ccc(F)cc2)c2ccccc21 | HIV-1 | viral replication | TZM-GFP, wild type | – | – | EC50 | 0.22 ± 0.096 µM
